# Results of several laboratories.
# Every numbered part comes from another study and shows a few of its results, in no order. Positions count from the first letter of the parent shown.

# Series 1 — target: CCNB3, cyclin fold, Cln2 fusion (human); method: yeast growth competition, sequencing; matrix: yeast; setting: strong parent motif; baseline: not given; reading: higher = stronger binding; starting sequence: viral docking peptide; KGVKRKLFAEDSS
Substitution,normalised enrichment score
KGVKKKLFAEDSS [R5K],0.865
KGVKRKLFDEDSS [A9D],3.09
KWVKRKLFAEDSS [G2W],1.67
KGVIRKLFAEDSS [K4I],1.83
KGVKRKLVAEDSS [F8V],0.401
KVVKRKLFAEDSS [G2V],2.04
KGVKRKLFPEDSS [A9P],2.74
KGAKRKLFAEDSS [V3A],1.33

# Series 2 — target: inorganic phosphate, free oxyanion; method: microfluidic competitive inhibition; matrix: in vitro, cell-free expressed; concentration: not given; reading: lower = stronger binding
# Setting: derived from inhibition constants, unchanged parent 615000 nM
# Starting sequence: PafA, mature enzyme, eGFP fusion (Elizabethkingia meningoseptica, UniProt Q9KJX5); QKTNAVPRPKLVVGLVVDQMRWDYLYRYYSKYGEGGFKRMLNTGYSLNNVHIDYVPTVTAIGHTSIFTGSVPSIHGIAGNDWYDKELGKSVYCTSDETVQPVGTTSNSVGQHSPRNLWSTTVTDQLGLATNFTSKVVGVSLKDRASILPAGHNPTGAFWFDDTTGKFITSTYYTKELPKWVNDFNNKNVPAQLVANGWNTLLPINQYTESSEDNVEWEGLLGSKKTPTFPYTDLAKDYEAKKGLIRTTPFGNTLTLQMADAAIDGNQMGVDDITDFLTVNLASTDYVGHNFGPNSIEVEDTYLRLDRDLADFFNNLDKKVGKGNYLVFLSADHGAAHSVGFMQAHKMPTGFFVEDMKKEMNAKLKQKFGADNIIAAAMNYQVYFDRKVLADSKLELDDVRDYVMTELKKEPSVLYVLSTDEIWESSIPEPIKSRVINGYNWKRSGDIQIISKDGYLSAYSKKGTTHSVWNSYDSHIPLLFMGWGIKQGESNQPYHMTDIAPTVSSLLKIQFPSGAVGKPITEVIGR
Substitution,phosphate dissociation constant [µM]
N80G,< 365
L193V,557
N199V,608
K166V,638
D96G,< 529
P293V,691
S210V,355
H51V,595

# Series 3 — read-out: binding; method: phage display NGS; molecule type: peptide; baseline: input library
# Target: UDP-N-acetylglucosamine--peptide N-acetylglucosaminyltransferase 110 kDa subunit (OGT, Homo sapiens, UniProt O15294)
# Sequence of UniProt O15294 (whole entry, looked up): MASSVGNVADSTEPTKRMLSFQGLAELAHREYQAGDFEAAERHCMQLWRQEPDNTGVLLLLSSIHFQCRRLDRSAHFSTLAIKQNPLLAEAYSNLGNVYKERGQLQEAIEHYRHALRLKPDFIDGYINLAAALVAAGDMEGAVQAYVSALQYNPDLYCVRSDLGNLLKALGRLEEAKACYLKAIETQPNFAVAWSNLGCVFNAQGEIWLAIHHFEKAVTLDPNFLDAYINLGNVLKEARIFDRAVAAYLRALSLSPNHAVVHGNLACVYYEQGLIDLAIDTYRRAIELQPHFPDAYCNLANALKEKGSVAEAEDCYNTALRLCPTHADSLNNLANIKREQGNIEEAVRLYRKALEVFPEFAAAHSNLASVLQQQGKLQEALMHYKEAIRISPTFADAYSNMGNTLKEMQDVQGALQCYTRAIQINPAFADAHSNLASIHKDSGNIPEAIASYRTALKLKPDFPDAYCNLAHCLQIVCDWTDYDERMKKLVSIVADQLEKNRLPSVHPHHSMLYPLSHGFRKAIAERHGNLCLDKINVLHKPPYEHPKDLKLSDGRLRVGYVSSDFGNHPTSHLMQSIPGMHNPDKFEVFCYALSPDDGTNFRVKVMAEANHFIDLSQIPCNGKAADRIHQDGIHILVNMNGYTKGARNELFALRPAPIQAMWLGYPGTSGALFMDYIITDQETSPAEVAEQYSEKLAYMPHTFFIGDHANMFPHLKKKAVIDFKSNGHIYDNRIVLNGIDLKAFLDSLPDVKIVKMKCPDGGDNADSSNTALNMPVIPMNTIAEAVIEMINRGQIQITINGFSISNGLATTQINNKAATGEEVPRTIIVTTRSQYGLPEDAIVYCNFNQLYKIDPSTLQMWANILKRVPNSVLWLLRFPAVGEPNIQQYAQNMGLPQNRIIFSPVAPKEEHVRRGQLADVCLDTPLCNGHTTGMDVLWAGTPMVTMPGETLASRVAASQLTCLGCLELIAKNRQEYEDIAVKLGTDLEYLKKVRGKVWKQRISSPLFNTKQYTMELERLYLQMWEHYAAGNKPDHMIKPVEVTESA
Molecule,minimum log2 enrichment ratio
TMPRDFTPKYQIMVK,4.34
AHHQGAVDHMRTHHS,1.93
YDHQRVAMLHNIHRV,1.68
FNHRNHHEPHRHHNA,2.96
VERWFPPKYQMPIQG,3.89
TYWHRDHTQTHIPSY,2.81
WPGHSHNNYAHHTGH,2.59
HTFREHYINHWTHSI,3.33

# Other studies, line by line
SMILES,target,test,conditions,measurement,value
COc1ccc(NC=C2C(=O)NC(=S)N(C)C2=O)cc1,His6 tag,AlphaScreen counter screen,concentration not given,inhibition,6.15%

# Some of these lines once more (series 2):
Substitution,phosphate dissociation constant [µM]
N80G,< 365
L193V,557
